Assay results gathered from unrelated publications.
Each line is one published result; not all experiments were run side by side.
B1: RPN10 R23E/D31K/E68K (Saccharomyces cerevisiae, UniProt P38886); chain MVLEATVLVIDNSEYSRNGDFPETRFEAQIKSVEFIFQAKRNSNPENTVGLISGAGANPRVLSTFTAKFGKILAGLHDTQIEGKLHMATALQIAQLTLKHRQNKVQHQRIVAFVCSPISDSRDELIRLAKTLKKNNVAVDIINFGEIEQNTELLDEFIAAVNNPQEETSHLLTVTPGPRLLYENIASSPIILEEGSSGMGAFGGSGGDSDANGTFMDFGVDPSMDPELAMALRLSMEEEQQRQERLRQQQQQQDQPEQSEQPEQHQDK
B2: UGT1A9 (Homo sapiens, UniProt O60656); chain GKLLVVPMDGSHWFTMRSVVEKLILRGHEVVVVMPEVSWQLGRSLNCTVKTYSTSYTLEDLDREFKAFAHAQWKAQVRSIYSLLMGSYNDIFDLFFSNCRSLFKDKKLVEYLKESSFDAVFLDPFDNCGLIVAKYFSLPSVVFARGILCHYLEEGAQCPAPLSYVPRILLGFSDAMTFKERVRNHIMHLEEHLLCHRFFKNALEIASEILQTPVTEYDLYSHTSIWLLRTDFVLDYPKPVMPNMIFIGGINCHQGKPLPMEFEAYINASGEHGIVVFSLGSMVSEIPEKKAMAIADALGKIPQTVLWRYTGTRPSNLANNTILVKWLPQNDLLGHPMTRAFITHAGSHGVYESICNGVPMVMMPLFGDQMDNAKRMETKGAGVTLNVLEMTSEDLENALKAVINDKSYKENIMRLSSLHKDRPVEPLDLAVFWVEFVMRHKGAPHLRPAAHDLTWYQYHSLDVIGFLLAVVLTVAFITFKCCAYGYRKCLGKKGRVKKAHKSKTH
B3: mutL R531A (Escherichia coli, UniProt P23367); chain MPIQVLPPQLANQIAAGEVVERPASVVKELVENSLDAGATRIDIDIERGGAKLIRIRDNGCGIKKDELALALARHATSKIASLDDLEAIISLGFRGEALASISSVSRLTLTSRTAEQQEAWQAYAEGRDMNVTVKPAAHPVGTTLEVLDLFYNTPARRKFLRTEKTEFNHIDEIIRRIALARFDVTINLSHNGKIVRQYRAVPEGGQKERRLGAICGTAFLEQALAIEWQHGDLTLRGWVADPNHTTPALAEIQYCYVNGRMMRDRLINHAIRQACEDKLGADQQPAFVLYLEIDPHQVDVNVHPAKHEVRFHQSRLVHDFIYQGVLSVLQQQLETPLPLDDEPQPAPRSIPENRVAAGRNHFAEPAAREPVAPRYTPAPASGSRPAAPWPNAQPGYQKQQGEVYRQLLQTPAPMQKLKAPEPQEPALAANSQSFGRVLTIVHSDCALLERDGNISLLSLPVAERWLRQAQLTPGEAPVCAQPLLIPLRLKVSAEEKSALEKAQSALAELGIDFQSDAQHVTIRAVPLPLAQQNLQILIPELIGYLAKQSVFEPGNIAQWIARNLMSEHAQWSMAQAITLLADVERLCPQLVKTPPGGLLQSVDLHPAIKALKDE
B4: NECTIN2 32-360 (Homo sapiens, UniProt Q92692); chain QDVRVQVLPEVRGQLGGTVELPCHLLPPVPGLYISLVTWQRPDAPANHQNVAAFHPKMGPSFPSPKPGSERLSFVSAKQSTGQDTEAELQDATLALHGLTVEDEGNYTCEFATFPKGSVRGMTWLRVIAKPKNQAEAQKVTFSQDPTTVALCISKEGRPPARISWLSSLDWEAKETQVSGTLAGTVTVTSRFTLVPSGRADGVTVTCKVEHESFEEPALIPVTLSVRYPPEVSISGYDDNWYLGRTDATLSCDVRSNPEPTGYDWSTTSGTFPTSAVAQGSQLVIHAVDSLFNTTFVCTVTNAVGMGRAEQVIFVRETPNTAGAGATGG
B5: SEMA4D 22-677 K395D (Homo sapiens, UniProt Q92854); chain MAFAPIPRITWEHREVHLVQFHEPDIYNYSALLLSEDKDTLYIGAREAVFAVNALNISEKQHEVYWKVSEDKKAKCAEKGKSKQTECLNYIRVLQPLSATSLYVCGTNAFQPACDHLNLTSFKFLGKNEDGKGRCPFDPAHSYTSVMVDGELYSGTSYNFLGSEPIISRNSSHSPLRTEYAIPWLNEPSFVFADVIRKSPDSPDGEDDRVYFFFTEVSVEYEFVFRVLIPRIARVCKGDQGGLRTLQKKWTSFLKARLICSRPDSGLVFNVLRDVFVLRSPGLKVPVFYALFTPQLNNVGLSAVCAYNLSTAEEVFSHGKYMQSTTVEQSHTKWVRYNGPVPKPRPGACIDSEARAANYTSSLNLPDKTLQFVDDHPLMDDSVTPIDNRPRLIKKDVNYTQIVVDRTQALDGTVYDVMFVSTDRGALHKAISLEHAVHIIEETQLFQDFEPVQTLLLSSKKGNRFVYAGSNSGVVQAPLAFCGKHGTCEDCVLARDPYCAWSPPTATCVALHQTESPSRGLIQEMSGDASVCPDKSKGSYRQHFFKHGGTAELKCSQKSNLARVFWKFQNGVLKAESPKYGLMGRKNLLIFNLSEGDSGVYQCLSEERVKNKTVFQVVAKHVLEVKVVPKPVVAPTLSVVQTEGSRIATKVLVAST
B6: XCL1 mature protein V21C/V59C/E4A (UniProt P47992); chain VGSAVSDKRTCVSLTTQRLPCSRIKTYTITEGSLRAVIFITKRGLKVCADPQATWVRDCVRSMDRKSNTRNNMIQTKPTGTQQSTNTAVTLTG
B7: EnvC 278-419 (Escherichia coli, UniProt P37690); chain STESEKSLMSRTGGLGAPRGQAFWPVRGPTLHRYGEQLQGELRWKGMVIGASEGTEVKAIADGRVILADWLQGYGLVVVVEHGKGDMSLYGYNQSALVSVGSQVRAGQPIALVGSSGGQGRPSLYFEIRRQGQAVNPQPWLGR
UniProt P46094, sequence (whole entry, looked up): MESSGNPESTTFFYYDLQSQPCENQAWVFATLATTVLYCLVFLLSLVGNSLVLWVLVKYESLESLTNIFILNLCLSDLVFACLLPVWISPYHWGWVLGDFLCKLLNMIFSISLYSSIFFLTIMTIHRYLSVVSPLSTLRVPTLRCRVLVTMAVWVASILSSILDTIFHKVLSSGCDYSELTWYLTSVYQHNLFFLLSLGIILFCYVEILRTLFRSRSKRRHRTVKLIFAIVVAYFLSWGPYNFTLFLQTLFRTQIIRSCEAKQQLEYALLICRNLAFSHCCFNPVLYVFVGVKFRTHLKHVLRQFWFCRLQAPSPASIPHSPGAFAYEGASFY
UniProt Q99731, sequence (whole entry, looked up): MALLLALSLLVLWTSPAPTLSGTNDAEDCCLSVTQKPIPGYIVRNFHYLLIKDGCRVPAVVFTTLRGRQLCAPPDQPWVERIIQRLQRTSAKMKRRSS
UniProt P45983, sequence (whole entry, looked up): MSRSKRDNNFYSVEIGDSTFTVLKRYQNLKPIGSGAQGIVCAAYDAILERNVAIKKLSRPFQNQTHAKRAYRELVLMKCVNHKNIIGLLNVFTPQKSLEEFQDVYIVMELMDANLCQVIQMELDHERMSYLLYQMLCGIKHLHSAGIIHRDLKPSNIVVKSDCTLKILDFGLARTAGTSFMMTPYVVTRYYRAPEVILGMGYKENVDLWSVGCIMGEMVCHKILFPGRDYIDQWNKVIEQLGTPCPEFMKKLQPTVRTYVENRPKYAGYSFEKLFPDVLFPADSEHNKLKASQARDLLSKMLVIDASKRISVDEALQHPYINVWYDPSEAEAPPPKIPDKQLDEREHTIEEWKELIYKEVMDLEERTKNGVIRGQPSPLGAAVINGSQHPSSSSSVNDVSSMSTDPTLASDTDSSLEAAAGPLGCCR
UniProt Q6DKI7, sequence (whole entry, looked up): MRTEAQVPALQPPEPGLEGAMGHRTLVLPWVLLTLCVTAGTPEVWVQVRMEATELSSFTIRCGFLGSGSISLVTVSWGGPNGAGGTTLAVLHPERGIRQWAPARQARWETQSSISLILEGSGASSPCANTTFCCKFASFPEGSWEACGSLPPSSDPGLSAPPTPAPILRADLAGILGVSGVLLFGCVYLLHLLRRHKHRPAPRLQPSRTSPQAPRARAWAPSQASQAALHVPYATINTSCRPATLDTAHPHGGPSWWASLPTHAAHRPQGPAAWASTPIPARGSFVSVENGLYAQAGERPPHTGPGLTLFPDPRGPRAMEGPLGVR
UniProt O43157, sequence (whole entry, unmodified, looked up): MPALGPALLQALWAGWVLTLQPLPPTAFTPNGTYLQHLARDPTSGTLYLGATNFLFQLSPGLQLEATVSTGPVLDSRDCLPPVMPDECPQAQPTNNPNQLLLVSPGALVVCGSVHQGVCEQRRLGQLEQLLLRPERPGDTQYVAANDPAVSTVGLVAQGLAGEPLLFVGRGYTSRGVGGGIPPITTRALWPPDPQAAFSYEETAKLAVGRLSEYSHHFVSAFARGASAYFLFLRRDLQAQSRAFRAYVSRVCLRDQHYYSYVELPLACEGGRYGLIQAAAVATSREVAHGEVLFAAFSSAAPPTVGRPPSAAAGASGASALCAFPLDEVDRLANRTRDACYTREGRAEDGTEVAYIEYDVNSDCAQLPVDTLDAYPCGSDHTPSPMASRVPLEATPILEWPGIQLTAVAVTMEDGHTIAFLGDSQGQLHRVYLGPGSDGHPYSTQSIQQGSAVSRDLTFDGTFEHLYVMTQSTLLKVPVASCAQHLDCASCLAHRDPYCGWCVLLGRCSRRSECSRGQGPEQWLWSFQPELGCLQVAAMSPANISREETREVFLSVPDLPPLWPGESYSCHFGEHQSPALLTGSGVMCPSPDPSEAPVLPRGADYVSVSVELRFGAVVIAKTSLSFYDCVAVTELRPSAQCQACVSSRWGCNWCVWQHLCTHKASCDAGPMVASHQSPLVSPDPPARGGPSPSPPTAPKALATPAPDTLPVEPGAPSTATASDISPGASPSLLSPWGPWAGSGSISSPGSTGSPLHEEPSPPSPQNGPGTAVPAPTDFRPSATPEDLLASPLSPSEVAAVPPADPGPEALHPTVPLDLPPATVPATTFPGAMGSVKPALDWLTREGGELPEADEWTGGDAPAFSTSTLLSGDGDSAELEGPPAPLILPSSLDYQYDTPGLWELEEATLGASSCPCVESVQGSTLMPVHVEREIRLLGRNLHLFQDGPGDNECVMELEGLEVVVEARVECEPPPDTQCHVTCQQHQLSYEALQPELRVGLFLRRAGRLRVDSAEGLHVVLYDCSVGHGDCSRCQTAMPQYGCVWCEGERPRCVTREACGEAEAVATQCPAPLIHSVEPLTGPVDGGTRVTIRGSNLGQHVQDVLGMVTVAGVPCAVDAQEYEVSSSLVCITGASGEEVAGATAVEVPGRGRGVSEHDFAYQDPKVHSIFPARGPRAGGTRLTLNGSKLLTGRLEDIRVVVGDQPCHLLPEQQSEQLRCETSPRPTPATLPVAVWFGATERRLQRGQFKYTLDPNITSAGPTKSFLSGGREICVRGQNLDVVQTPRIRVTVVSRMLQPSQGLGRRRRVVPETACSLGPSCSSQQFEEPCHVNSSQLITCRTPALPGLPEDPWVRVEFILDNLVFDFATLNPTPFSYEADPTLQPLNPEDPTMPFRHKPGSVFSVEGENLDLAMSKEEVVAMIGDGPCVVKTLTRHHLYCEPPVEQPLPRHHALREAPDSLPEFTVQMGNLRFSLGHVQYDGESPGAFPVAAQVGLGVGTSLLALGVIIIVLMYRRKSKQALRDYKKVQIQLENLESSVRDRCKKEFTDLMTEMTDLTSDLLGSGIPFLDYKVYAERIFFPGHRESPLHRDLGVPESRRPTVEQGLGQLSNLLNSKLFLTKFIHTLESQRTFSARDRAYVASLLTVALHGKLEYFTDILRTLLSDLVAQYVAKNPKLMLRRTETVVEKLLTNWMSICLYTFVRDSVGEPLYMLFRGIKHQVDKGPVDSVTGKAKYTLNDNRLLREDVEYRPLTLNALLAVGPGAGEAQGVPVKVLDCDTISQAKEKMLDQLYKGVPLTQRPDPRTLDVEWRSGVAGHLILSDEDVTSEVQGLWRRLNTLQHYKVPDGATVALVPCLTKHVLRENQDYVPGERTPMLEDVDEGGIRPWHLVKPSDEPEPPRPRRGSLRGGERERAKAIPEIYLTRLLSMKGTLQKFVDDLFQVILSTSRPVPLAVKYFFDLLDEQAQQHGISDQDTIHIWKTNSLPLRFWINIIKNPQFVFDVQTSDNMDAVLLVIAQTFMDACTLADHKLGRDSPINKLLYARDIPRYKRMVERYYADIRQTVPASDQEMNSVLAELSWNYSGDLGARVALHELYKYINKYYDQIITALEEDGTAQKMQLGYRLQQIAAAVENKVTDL
UniProt P29375, sequence (whole entry, looked up): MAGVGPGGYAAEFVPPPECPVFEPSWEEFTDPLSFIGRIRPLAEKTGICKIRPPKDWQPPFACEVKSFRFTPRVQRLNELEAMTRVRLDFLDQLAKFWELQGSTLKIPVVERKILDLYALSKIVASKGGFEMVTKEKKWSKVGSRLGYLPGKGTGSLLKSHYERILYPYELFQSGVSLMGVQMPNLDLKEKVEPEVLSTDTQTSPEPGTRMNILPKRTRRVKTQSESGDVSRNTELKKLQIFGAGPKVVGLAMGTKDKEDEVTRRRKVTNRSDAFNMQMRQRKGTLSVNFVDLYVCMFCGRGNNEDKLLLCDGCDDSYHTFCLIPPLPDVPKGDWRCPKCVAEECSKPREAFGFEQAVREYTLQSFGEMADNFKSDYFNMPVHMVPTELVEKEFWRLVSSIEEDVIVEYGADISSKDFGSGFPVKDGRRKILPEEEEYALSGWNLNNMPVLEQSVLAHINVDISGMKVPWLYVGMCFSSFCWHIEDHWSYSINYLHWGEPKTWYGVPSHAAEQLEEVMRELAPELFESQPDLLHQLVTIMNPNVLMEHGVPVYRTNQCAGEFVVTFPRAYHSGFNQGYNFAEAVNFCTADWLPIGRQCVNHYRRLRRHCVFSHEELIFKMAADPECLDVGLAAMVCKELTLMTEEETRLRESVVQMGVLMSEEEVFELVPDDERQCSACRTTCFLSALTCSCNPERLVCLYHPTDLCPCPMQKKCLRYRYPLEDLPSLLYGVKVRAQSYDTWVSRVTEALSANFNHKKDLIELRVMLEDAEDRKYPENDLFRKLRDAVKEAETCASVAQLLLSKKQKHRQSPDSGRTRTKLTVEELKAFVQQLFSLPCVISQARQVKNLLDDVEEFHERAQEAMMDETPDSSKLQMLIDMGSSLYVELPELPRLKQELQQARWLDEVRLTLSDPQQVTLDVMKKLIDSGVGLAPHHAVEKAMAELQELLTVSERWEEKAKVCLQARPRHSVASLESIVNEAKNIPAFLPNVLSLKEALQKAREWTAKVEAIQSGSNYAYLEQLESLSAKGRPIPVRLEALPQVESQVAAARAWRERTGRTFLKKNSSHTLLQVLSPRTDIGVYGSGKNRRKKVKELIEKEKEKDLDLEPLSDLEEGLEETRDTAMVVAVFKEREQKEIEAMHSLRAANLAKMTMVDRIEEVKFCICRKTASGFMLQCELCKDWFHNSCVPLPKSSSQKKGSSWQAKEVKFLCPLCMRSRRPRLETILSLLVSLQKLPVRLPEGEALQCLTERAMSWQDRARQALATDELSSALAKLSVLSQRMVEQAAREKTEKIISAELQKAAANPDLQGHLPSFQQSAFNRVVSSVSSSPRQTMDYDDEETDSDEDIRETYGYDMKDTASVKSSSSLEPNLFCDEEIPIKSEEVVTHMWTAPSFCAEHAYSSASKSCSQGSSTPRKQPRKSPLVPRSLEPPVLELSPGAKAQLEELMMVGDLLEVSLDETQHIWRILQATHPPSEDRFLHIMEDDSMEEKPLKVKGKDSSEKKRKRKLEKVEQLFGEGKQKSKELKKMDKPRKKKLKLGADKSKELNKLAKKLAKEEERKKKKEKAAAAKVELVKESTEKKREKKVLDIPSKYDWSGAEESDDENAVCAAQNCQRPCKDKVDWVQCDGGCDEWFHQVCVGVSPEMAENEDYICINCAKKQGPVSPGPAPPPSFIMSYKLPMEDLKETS

Substance = TIMP2 N-terminal domain S4E/V6R/V18M/I35V/N38Q/S68N/V71N/H97R; target or system = MMP10 99-263 (Homo sapiens, UniProt P09238); test = fluorogenic substrate cleavage, inhibitor, enzyme inhibition assay; setting = apparent; endpoint = Ki; value = 446 nM
Substance = B1 (RPN10 R23E/D31K/E68K); target or system = RPT5 (Saccharomyces cerevisiae, UniProt P33297); test = SspB-delivered substrate degradation, fluorescence polarisation; scale = baseline: wild type proteasome, higher = more degradation; endpoint = relative substrate degradation; value = 1.6 fold
Substance = ARYKRTARKS (Histone H3.1 2-11 T3Y/Q5R (Homo sapiens, UniProt P68431); sequence looked up); target or system = KDM5A 287-347 (Homo sapiens, UniProt P29375); test = competition with labeled peptide, fluorescence polarisation; system = peptide; setting = added: H3 peptide; endpoint = Ki; value = 12800 nM
Substance = B2 (UGT1A9); target or system = COc1ccc(-c2oc3cc(O)cc(O)c3c(=O)c2OC)cc1O; test = steady-state kinetics; setting = pH 7.4, 37 °C; endpoint = Km; value = 1.64 µM
Substance = FGF2 (Homo sapiens, UniProt P09038); target or system = FGFR3 isoform IIIc (unknown, UniProt Q61851); test = cell proliferation, MTT; system = BaF3-FGFR3c; setting = 0 to 320 nM, added: chondroitin sulfate B 4.9 µg/mL; endpoint = half-maximal concentration; value = 5.6 nM
Substance = B3 (mutL R531A); target or system = mutH 1-229 (Escherichia coli, UniProt P06722); test = MutH cleavage of heteroduplex DNA; scale = baseline: MutL wild type, higher = more activity; endpoint = MutL activity; value = 91%
Substance = B4 (NECTIN2 32-360); target or system = PVRIG extracellular domain 41-171 (Homo sapiens, UniProt Q6DKI7); test = SEC-MALS; endpoint = molecule per partner; value = 1
Substance = YASPSRRRKLSLNIPI (RASGRF1 D-site peptide (Homo sapiens)); target or system = MAPK8, pT183, pY185 (Homo sapiens, UniProt P45983); test = kinase activity, inhibitor, competitive kinase inhibition assay; system = peptide; setting = added: ATP 1 mM; endpoint = IC50; value = 1100 nM
Substance = CCL19 (UniProt Q99731); target or system = ACKR4 (Homo sapiens, UniProt Q9NPB9); test = β-arrestin2 recruitment, agonist, EFC; system = CHO-CCX-CKR; setting = added: CXCL13 100 nM; endpoint = pEC50; value = 9.1
Substance = B5 (SEMA4D 22-677 K395D); target or system = PLXNB1 20-535 (Homo sapiens, UniProt O43157); test = SPR; scale = baseline: wild type, higher = weaker binding; endpoint = fold weaker binding; value = > 200 fold
Substance = B6; target or system = XCR1 (Homo sapiens, UniProt P46094); test = IP3 accumulation; system = COS-7; scale = baseline: XCL1 CC3, higher = less potent; endpoint = potency decrease; value = 90 fold
Substance = B7 (EnvC 278-419); target or system = AmiB (Escherichia coli); test = dye release from labelled sacculi, activator; setting = 1 µM; scale = baseline: wild-type, higher = more activation; endpoint = AmiB activation; value = 100%

Repeated from above:
Substance = CCL19 (UniProt Q99731); target or system = ACKR4 (Homo sapiens, UniProt Q9NPB9); test = β-arrestin2 recruitment, agonist, EFC; system = CHO-CCX-CKR; setting = added: CXCL13 100 nM; endpoint = pEC50; value = 9.1
